Measurements collected from several papers.
A part holds a random share of what one study measured. Positions count from the first letter of the parent shown.

Series 1 — method: DHFR PCA, deep sequencing; sample: yeast; with: (+)-ABA 17 µM; relative to: wild-type fitted maximum; direction: higher = stronger binding; quantity: relative binding score
Target: ABI1, truncated, D143A, DHFR fusion (Arabidopsis thaliana)
Setting: methotrexate growth selection, single substitutions
Starting sequence: PYL1, truncated, DHFR fusion (Arabidopsis thaliana); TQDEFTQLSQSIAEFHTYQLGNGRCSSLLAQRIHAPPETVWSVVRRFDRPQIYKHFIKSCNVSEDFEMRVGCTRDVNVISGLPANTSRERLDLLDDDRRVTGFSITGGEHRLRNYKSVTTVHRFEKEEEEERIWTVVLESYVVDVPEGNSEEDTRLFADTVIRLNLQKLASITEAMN; partner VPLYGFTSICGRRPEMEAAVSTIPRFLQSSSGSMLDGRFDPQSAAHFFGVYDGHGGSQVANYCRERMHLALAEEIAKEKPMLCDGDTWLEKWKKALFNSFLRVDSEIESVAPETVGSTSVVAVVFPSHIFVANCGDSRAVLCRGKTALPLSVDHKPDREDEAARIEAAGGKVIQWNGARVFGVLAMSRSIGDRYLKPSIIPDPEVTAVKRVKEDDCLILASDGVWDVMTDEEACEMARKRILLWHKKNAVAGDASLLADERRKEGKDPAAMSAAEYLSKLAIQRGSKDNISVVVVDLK
E4P: 69.3%
H122P: 4.63%
N114Y: 11.6%
K126S: 97.6%
V142G: 33.3%
S11Q: 90.1%
V44L: 75.3%

Series 2 — method: protein binding microarray; molecule type: double-stranded DNA, one strand shown; sample: in vitro; tested at: not given; relative to: not given; direction: higher = stronger binding; quantity: E-score
Target: Histone acetyltransferase KAT6A, both winged helices, GST fusion (KAT6A, Homo sapiens, UniProt Q92794, residues 1-181)
Setting: 8-mer, flanks averaged, mean of 2 arrays, mostly near background
Target sequence (chain): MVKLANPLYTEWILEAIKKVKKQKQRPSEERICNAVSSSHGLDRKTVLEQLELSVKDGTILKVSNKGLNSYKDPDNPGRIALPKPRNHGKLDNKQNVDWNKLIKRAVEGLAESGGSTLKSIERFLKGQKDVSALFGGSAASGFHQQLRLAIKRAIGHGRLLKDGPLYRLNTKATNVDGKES
ATAGTACG: 0.0883
TACGGTCA: 0.178
AATACTAC: -0.0277
ATGGATGA: -0.145
CGCACCCA: 0.114
ATGACCAT: -0.107
CGTTCTGA: -0.000385
ATCACAGG: -0.0676
GCCCTGAA: -0.147
GGATACGA: -0.055
GTCGAGTA: -0.0697

Series 3 — target: CCNB3, cyclin fold, Cln2 fusion (human); method: yeast growth competition, sequencing; sample: yeast; setting: strong parent motif; relative to: not given; direction: higher = stronger binding; quantity: normalised enrichment score
Starting sequence: BRCA2 docking peptide (human); PSIKRNLLNEFDR
PSIKRNLLNEFDL [R13L]: 0.542
PSIKRNLKNEFDR [L8K]: 0.682
PSIKRNLLNFFDR [E10F]: 0.692
PSIKRNLLNEFTR [D12T]: 0.528
PSIKRNLLGEFDR [N9G]: 0.695
PSIKRNLLNEFDK [R13K]: 0.956
PSITRNLLNEFDR [K4T]: 0.519
PPIKRNLLNEFDR [S2P]: 0.732
PSIKRNDLNEFDR [L7D]: 0.109
PSIHRNLLNEFDR [K4H]: -0.0577

Mixed results
PhoQ, residues 284 288 289 292 302 303 SSLVEF
fold induction (PhoP, residues 12 14 15 18 19 VQGLL (Escherichia coli, UniProt P23836); Sort-seq, item: YFP reporter; E. coli; PhoQ-PhoP variant library, with: 10 µM Mg2+; relative to: high Mg2+ state, higher = stronger signaling): 4.33
